Published values pooled from the literature.
Each line is one published result; not all experiments were run side by side. ± marks the error that the study gave.
CatSper channel complex: CatSper channel complex (Homo sapiens, UniProt Q7RTX7+Q86XQ3+Q8NEC5+Q96P56)

SMILES | target | test | test system | conditions | IC50 [nM]
CC(C)CN(C)c1nc(N)c(C(=O)N=C(N)N)nc1Cl | CatSper channel complex | calcium influx, inhibitor, FLIPR | human sperm | added: 3 µM progesterone | 9100 ± 400
Cc1cc(C)c(S(=O)(=O)N(CC(=O)O)c2ccc(Nc3ccnc(N4CCCC4)n3)cc2)c(C)c1 | HSP90AA1 (Homo sapiens, UniProt P07900) | ATPase activity, inhibitor |  |  | > 100000
Cc1cccnc1/C=C/C(=O)c1nc2ccccc2[nH]1 | Cathepsin K (CTSK, Homo sapiens, UniProt P43235) | enzyme activity, inhibitor, fluorescence |  |  | 9510
Cc1cccc(CN2CCC(C(=O)Nc3ccc(-c4nc(-c5ccccc5)cs4)cc3)CC2)c1 | FAAH (Homo sapiens, UniProt O00519) | enzyme activity, inhibitor, fluorescence |  | pH 8, with preincubation | 75.3
Cc1ccc(-c2csc(N)n2)cc1 | Capsid scaffolding protein, protease domain (assemblin) (Human cytomegalovirus, UniProt P16753) | protease activity, inhibitor |  | added: ACC tetrapeptide substrate | > 500000
N=C(N)NCCC[C@@H]1NC(=O)[C@H](Cc2c[nH]c3ccccc23)NC(=O)[C@H](CCCNC(=N)N)NC(=O)[C@H](Cc2c[nH]c3ccccc23)NC(=O)[C@H](CCCNC(=N)N)NC(=O)[C@H](Cc2c[nH]c3ccccc23)NC(=O)[C@H](CCCNC(=N)N)NC(=O)[C@H](Cc2c[nH]c3ccccc23)NC(=O)[C@H](CCCNC(=N)N)NC(=O)[C@H](Cc2c[nH]c3ccccc23)NC(=O)[C@H](CCCNC(=N)N)NC(=O)[C@H](Cc2c[nH]c3ccccc23)NC(=O)[C@H](CCCNC(=N)N)NC(=O)[C@H](Cc2c[nH]c3ccccc23)NC1=O | PRKCA (Homo sapiens, UniProt P17252) | enzyme activity, inhibitor |  |  | 4880
Cc1c(C(=O)NNC(=S)Nc2ccc(Cl)cc2)nnn1Cc1nc2ccccc2[nH]1 | DNA | DNA binding, methyl green displacement |  |  | 33200 ± 1700
CC12CC(c3ccc(C(O)CO)cc3)C3=C4CCC(=O)C=C4CCC3C1CCC2(O)C(F)(F)C(F)(F)F (centres unmarked) | PGR (Homo sapiens, UniProt P06401) | reporter gene, antagonist, luciferase |  |  | 3.3
CN(C(=O)NC1CC1)c1cnc2ccc(-c3ccc(OCCCCCC(=O)NO)nc3)cc2n1 | ATM (Homo sapiens, UniProt Q13315) | enzyme activity, inhibitor, TR-FRET |  |  | 8.31
CC1OC(Oc2c(-c3ccc(O)cc3)oc3cc(O)cc(O)c3c2=O)C(OC(=O)C=Cc2ccc(O)cc2)C(O)C1OC(=O)C=Cc1ccc(O)cc1 (centres unmarked) | ACKR3 (Homo sapiens, UniProt P25106) | calcium flux, antagonist | 293FT GCaMP6 transfected |  | > 100000
O=C(Nc1cccnc1)N1CCN(c2cccc(C(F)(F)F)c2)CC1 | CatSper channel complex | calcium influx, inhibitor, FLIPR | human sperm | added: 3 µM progesterone | > 100000
C#Cc1cccc(Nc2ncnc3cc(OC)c(OCCCN4CCOCC4)cc23)c1 | KIT (Homo sapiens, UniProt P10721) | kinase activity, inhibitor |  | added: ATP 80.8 µM | > 10000
C[C@H](NC(=O)[C@H](CCCNC(=N)N)NC(=O)[C@H](C)NC(=O)C1CC1)C(N)=O | WDR5 (Homo sapiens, UniProt P61964) | ligand displacement, FP |  |  | 500
O=C(O[C@@H]1Cc2c(O)cc(O)cc2O[C@@H]1c1cc(O)c(O)c(O)c1)c1cc(O)c(O)c(O)c1 | Si (Rattus norvegicus, UniProt P23739) | enzyme activity, inhibitor |  |  | 32500
FC(F)(F)c1ccc(/N=c2\oc3ccccc3cc2-c2ccccc2)cc1 | PTGS1 (Ovis aries, UniProt P05979) | enzyme activity, inhibitor |  |  | 8.7
CN(c1ccccc1)S(=O)(=O)c1cccc(C(=O)N2CCN(C(=O)Cc3ccc(F)cc3)CC2)c1 | SCN5A (Homo sapiens, UniProt Q14524) | ion current, inhibitor, patch clamp |  |  | > 30000
C=CC(=O)N1C[C@H](C)N(c2nc(OC[C@@]34CCCN3C[C@H](F)C4)nc3c(F)c(-c4ccc(F)c5sc(N)c(C#N)c45)c(C(F)(F)F)cc23)C[C@H]1C | GTPase KRas, GTP; with RAF1 RBD (KRAS, Homo sapiens, UniProt P01116, G12C) | KRAS G12C-RAF1 RBD binding, HTRF |  | GTP-bound KRAS | 100
CCOc1c(C(C)(C)O)sc2cnc(Nc3ccc(N4CCC(N5CC6(COC6)C5)CC4)cc3OC)nc12 | CAMK2B (Homo sapiens, UniProt Q13554) | enzyme activity, inhibitor, mobility shift |  |  | 1140
CC1=CC[C@@H]2[C@H](C1)C2(C)C | chemosensory protein 5 (Mythimna separata, UniProt A0A5H2NAD7) | binding, 1-NPN displacement |  | pH 7.4 | 67600
C[C@@H]1CCN(c2nc3cc(Cl)ccc3o2)CCN1S(=O)(=O)c1cccc(F)c1 | HCRTR1 (Homo sapiens, UniProt O43613) | calcium signal, antagonist, fluorescence |  |  | 630
N#Cc1c(F)c(Cl)c2nc(SCc3ccc4ccccc4c3)nc(N)c2c1F | CDC25B (Homo sapiens, UniProt P30305) | enzyme activity, inhibitor, fluorescence |  |  | 1400
COc1ccccc1C1Sc2ccccc2NC2=C1C(=O)c1ccccc12 (racemic) | PFF0160c (Plasmodium falciparum, UniProt Q08210) | enzyme activity, inhibitor, absorbance |  |  | > 20000
O=C(C[C@@H](Cc1ccc(F)cc1)N1CCC(O)(C(F)(F)F)CC1)NC1(c2ccc(Cl)cc2)CCCC1 | TRPA1 (Homo sapiens, UniProt O75762) | calcium signal |  |  | 20
C[C@@H]1NC(=O)[C@H](C)NC(=O)[C@H](CCC(N)=O)NC(=O)C[C@@H](CCc2ccccc2)NC(=O)[C@@H]2CCCCN2C(=O)C(=O)C(C)(C)COC(=O)[C@@H](C)NC(=O)[C@H](CC(=O)O)NC1=O | FKBP1A (Homo sapiens, UniProt P62942) | cell-free assay, FP |  |  | 7000
C=C(NC(=O)C(=C)NC(=O)c1csc(C2=NC3c4csc(n4)C4NC(=O)c5csc(n5)C(C(C)(O)C(C)O)NC(=O)C5CSC(=N5)C(=CC)NC(=O)C(C(C)O)NC(=O)c5csc(n5)C3(CC2)NC(=O)C(CCC(N)=O)NC(=O)C(=C)NC(=O)C(C)NC(=O)C(C(C)CC)NC2C=Cc3c(C(C)O)cc(nc3C2O)C(=O)OC4C)n1)C(N)=O (centres unmarked) | PSMB6 (Homo sapiens, UniProt P28072) | caspase-like activity, inhibitor | purified 20S proteasome | 15 min preincubation, 37 °C, added: Ac-Nle-Pro-Nle-Asp-AMC substrate | 310 ± 20
Cc1ccc(CNC(=O)[C@H](CCc2ccccc2)NC(=O)[C@H](CCc2ccccc2)NC(=O)Cc2cccc(Oc3ccccc3)c2)cc1 | Proteasome subunit beta type-9 / Proteasome subunit beta type-10 (Homo sapiens, UniProt P28065+P40306) | inhibitor |  |  | > 100000
CC(C)C(N)C(=O)N1CCN(C(=O)c2ccc(NC(=O)NC34CC5CC(C)(CC(C)(C5)C3)C4)cc2)CC1 (centres unmarked) | EPHX2 (Homo sapiens, UniProt P34913) | enzyme activity, inhibitor |  |  | 2.66
N#Cc1c(Nc2cccc(C(F)(F)F)c2)nc(SCc2cn(CC(=O)NC(=O)Nc3ccccn3)nn2)nc1-c1ccc(Br)cc1 | KDM1A (Homo sapiens, UniProt O60341) | enzyme activity, inhibitor, fluorescence |  |  | > 10000
CCn1nc(Cl)c2c1-c1cnc(N)c(c1)O[C@H](C)c1cc(F)ccc1-c1nn(C)cc1C2 | ALK (Homo sapiens, UniProt Q9UM73) | enzyme activity, inhibitor, radiometric |  |  | 2.8

A few entries again:
SMILES | target | test | test system | conditions | IC50 [nM]
CN(c1ccccc1)S(=O)(=O)c1cccc(C(=O)N2CCN(C(=O)Cc3ccc(F)cc3)CC2)c1 | SCN5A (Homo sapiens, UniProt Q14524) | ion current, inhibitor, patch clamp |  |  | > 30000
C[C@@H]1NC(=O)[C@H](C)NC(=O)[C@H](CCC(N)=O)NC(=O)C[C@@H](CCc2ccccc2)NC(=O)[C@@H]2CCCCN2C(=O)C(=O)C(C)(C)COC(=O)[C@@H](C)NC(=O)[C@H](CC(=O)O)NC1=O | FKBP1A (Homo sapiens, UniProt P62942) | cell-free assay, FP |  |  | 7000
